Earlier results that unrelated publications cite.
Lines come from different studies, so protocols differ.
UniProt Q01827, sequence (whole entry, looked up): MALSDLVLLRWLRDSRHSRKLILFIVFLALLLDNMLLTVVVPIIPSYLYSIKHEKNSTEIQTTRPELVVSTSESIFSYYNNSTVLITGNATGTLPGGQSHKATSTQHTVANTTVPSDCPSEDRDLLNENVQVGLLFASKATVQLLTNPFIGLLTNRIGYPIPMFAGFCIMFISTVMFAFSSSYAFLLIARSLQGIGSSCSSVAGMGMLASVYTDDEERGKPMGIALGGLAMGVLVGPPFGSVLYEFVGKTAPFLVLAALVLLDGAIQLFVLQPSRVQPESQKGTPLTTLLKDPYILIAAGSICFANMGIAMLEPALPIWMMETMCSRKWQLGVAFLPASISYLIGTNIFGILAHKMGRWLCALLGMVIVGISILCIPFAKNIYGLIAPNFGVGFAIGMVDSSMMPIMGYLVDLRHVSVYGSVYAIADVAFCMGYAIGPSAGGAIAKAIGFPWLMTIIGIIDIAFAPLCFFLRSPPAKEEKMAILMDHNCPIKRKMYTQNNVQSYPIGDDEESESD
UniProt Q15391, sequence (whole entry, looked up): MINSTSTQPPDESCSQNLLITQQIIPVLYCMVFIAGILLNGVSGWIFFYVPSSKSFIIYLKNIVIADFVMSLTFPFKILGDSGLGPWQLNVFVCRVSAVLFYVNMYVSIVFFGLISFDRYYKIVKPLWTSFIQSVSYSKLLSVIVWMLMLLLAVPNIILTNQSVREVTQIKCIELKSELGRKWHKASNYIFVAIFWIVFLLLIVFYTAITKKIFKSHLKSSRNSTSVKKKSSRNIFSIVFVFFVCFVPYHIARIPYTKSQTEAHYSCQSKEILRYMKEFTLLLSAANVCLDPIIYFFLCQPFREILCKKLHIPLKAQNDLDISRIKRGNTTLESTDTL
UniProt P23921, sequence (whole entry, looked up): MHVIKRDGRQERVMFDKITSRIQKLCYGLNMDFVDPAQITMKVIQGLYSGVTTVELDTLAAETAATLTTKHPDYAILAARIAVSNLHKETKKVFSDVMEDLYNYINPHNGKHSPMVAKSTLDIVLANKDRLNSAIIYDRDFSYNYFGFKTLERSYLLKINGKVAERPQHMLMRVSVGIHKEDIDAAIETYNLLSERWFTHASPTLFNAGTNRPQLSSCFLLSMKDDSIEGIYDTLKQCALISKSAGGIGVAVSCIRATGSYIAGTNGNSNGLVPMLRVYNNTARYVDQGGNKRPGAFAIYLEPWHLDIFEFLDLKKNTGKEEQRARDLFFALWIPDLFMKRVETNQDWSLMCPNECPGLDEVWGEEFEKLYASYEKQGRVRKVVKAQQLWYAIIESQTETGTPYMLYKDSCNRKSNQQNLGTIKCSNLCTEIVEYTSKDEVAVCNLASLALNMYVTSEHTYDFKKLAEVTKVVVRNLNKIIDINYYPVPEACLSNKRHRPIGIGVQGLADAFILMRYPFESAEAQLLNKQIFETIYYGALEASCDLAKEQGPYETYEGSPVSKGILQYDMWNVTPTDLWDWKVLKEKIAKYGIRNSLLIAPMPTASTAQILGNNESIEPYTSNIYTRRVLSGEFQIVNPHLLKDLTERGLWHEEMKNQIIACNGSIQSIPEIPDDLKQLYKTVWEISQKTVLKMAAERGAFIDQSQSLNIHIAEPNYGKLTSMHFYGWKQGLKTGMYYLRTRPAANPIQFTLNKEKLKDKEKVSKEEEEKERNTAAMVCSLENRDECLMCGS
UniProt P21554, sequence (whole entry, looked up): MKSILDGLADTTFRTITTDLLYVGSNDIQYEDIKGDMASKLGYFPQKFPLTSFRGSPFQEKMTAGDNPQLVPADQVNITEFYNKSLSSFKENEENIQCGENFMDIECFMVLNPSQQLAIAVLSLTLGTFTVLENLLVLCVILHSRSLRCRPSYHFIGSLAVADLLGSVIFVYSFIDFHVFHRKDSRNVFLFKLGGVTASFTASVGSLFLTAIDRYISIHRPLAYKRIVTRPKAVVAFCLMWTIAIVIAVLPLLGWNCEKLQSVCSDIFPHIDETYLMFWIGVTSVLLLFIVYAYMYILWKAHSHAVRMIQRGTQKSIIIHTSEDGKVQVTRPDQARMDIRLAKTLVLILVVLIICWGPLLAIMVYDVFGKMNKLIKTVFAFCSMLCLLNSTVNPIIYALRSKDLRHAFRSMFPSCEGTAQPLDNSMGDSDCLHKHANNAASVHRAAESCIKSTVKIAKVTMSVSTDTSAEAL
UniProt Q92911, sequence (whole entry, looked up): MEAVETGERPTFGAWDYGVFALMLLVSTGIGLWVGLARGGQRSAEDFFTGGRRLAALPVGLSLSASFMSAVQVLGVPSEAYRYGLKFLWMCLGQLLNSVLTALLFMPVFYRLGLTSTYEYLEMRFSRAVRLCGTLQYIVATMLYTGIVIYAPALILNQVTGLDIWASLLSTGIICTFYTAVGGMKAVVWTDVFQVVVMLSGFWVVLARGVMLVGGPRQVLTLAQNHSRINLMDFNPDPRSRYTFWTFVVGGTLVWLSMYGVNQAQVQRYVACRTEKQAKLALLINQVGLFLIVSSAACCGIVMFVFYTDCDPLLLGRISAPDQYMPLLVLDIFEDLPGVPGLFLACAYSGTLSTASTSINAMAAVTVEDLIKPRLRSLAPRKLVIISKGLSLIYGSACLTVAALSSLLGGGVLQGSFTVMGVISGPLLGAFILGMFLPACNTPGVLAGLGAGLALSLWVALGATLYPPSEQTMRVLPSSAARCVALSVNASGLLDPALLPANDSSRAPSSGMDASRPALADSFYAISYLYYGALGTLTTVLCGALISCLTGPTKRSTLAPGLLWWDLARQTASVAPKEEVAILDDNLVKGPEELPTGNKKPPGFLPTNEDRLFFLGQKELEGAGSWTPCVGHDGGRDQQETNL

Molecule = Nc1ncnc2c1ncn2[C@@H]1O[C@H](COP(=O)(O)OP(=O)(O)O)[C@@H](O)[C@H]1O; target = P2Y1 receptor; test = reporter gene, yeast reporter system; setting = 24 h; quantity = EC50; value = 2300 nM
Molecule = CCOc1cc(Oc2ccc(C(F)(F)F)cc2Cl)ccc1[N+](=O)[O-]; target = SLC5A5 (Homo sapiens, UniProt Q92911); test = iodide uptake, inhibitor; system = HEK293T expressing human NIS; quantity = EC50; value = ~2000 nM
Molecule = N#Cc1c(N)nc(SCC(N)=O)c(C#N)c1-c1ccc(OCC2CC2)cc1; target = adenosine receptor A2B (mouse); test = binding, partial agonist; quantity = Ki; value = 136 nM
Molecule = O=C(O)[C@H]1O[C@H](OP(=O)(O)OP(=O)(O)OC[C@H]2O[C@@H](n3ccc(=O)[nH]c3=O)[C@H](O)[C@@H]2O)[C@H](O)[C@@H](O)[C@@H]1O; target = P2Y purinoceptor 14 (P2RY14, Homo sapiens, UniProt Q15391); test = cAMP level, agonist; quantity = EC50; value = 370 nM
Molecule = CC(C)(c1ccccc1)c1ccc(O)cc1; target = estrogen receptor; test = reporter gene, agonist; quantity = EC50; value = 100 nM
Molecule = cyclic; target = accessory gene regulator protein C (Staphylococcus aureus, UniProt O33587); test = reporter gene, agonist, β-lactamase reporter; quantity = EC50; value = 40.9 nM
Molecule = O=C(Nc1cc(Cl)ccc1O)Nc1cc(C(F)(F)F)ccc1Cl; target = nicotinic acetylcholine receptor alpha7; test = agonist; quantity = EC50; value = 3000 to 13000 nM
Molecule = CCc1c(C(=O)NCCc2ccc(N(C)C)cc2)[nH]c2ccc(Cl)cc12; target = Cannabinoid receptor 1 (CNR1, Homo sapiens, UniProt P21554); test = allosteric modulator, radioligand binding; setting = with: [3H]CP55,940; quantity = Kb; value = 207 nM
Molecule = CC=O; target = yeast alcohol dehydrogenase H48Q; test = inhibitor, product inhibition, slope constant; setting = pH 7.3, 30 °C; quantity = Ki; value = 550000 nM
Molecule = CN1[C@@H](CC(=O)c2ccccc2)CCC[C@H]1C[C@H](O)c1ccccc1; target = alpha4beta2 nicotinic acetylcholine receptor; test = binding; setting = with: [3H]nicotine; quantity = Ki; value = 16 nM
Molecule = C[C@H](CC[C@@H]1OC1(C)C)[C@H]1CC[C@H]2[C@@H]3CC=C4C[C@@H](O)CC[C@]4(C)[C@H]3CC[C@]12C; target = LXR; test = reporter gene, agonist; quantity = EC50; value = 1000 to 10000 nM
Molecule = Nc1nc(Cl)nc2c1ncn2[C@@H]1O[C@H](COP(=O)(O)OP(=O)(O)OP(=O)(O)O)[C@@H](O)[C@@H]1F; target = Ribonucleoside-diphosphate reductase large subunit (Homo sapiens, UniProt P23921); test = oligomerization; quantity = EC50; value = 70 nM
Molecule = CN1C/C(=C\c2ccc(Cl)cc2Cl)C/C(=C\c2ccc(Cl)cc2Cl)C1; target = Synaptic vesicular amine transporter (Slc18a2, Rattus norvegicus, UniProt Q01827); test = substrate site binding; quantity = Ki; value = 220 nM

For quick reference, copied from above:
Molecule = O=C(O)[C@H]1O[C@H](OP(=O)(O)OP(=O)(O)OC[C@H]2O[C@@H](n3ccc(=O)[nH]c3=O)[C@H](O)[C@@H]2O)[C@H](O)[C@@H](O)[C@@H]1O; target = P2Y purinoceptor 14 (P2RY14, Homo sapiens, UniProt Q15391); test = cAMP level, agonist; quantity = EC50; value = 370 nM
